Earlier results as cited in several papers.
Each line is one published result; not all experiments were run side by side. ± marks the error that the study gave.

Compound	tested on	assay	test system	conditions	measurement	result
CCNS(=O)(=O)c1ccc(OC)cc1C1(O)CCN(Cc2cccc(Oc3ccccc3OC)c2)CC1	human CCR8 K195A mutant (TM5)	IP accumulation, agonist			EC50	12 nM
Cc1cnc(N2CC3(CCOCC3)C2)c(C(=O)Nc2ccc(C(=O)N3CCc4cc(C(=O)Nc5c(C)cccc5F)sc4-c4ccccc43)cc2)c1	respiratory syncytial virus	cytopathic effect	5 subtype A clinical isolates		median IC90	1.77 ng/mL
O=C(NCCc1cccc(C(F)(F)F)c1)Nc1cccc2cnccc12	TRPV1	calcium flux, antagonist	HEK293	together with: capsaicin	IC50	19 nM
CCCCC(C)C(=O)O (stereo not drawn)	CALUX reporter cell lines	reporter gene		cell-total, maximum across	EC10	4 µM
COc1ccccc1Oc1cccc(CN2CCC(NC(=O)C3CC(=O)Nc4ccccc43)CC2)c1 (stereo not drawn)	human CCR8 S110A mutant (TM3)	IP accumulation, agonist			EC50	3.6 nM
CC1(C)S[C@@H]2[C@H](NC(=O)[C@H](N)c3ccccc3)C(=O)N2[C@H]1C(=O)O	Enterobacter cloacae		clinical isolate RKI-No_243/15		MIC	> 16 mg/L
CC(C)(C)c1ccc(NC(=O)c2ccc(-c3ncccc3C(F)(F)F)cc2)cc1	TRPV1	calcium flux, antagonist	HEK293	together with: capsaicin	IC50	6 nM
COc1ccccc1Oc1cccc(CN2CCC(O)(c3ccccc3C(=O)O)CC2)c1	human CCR8 S110A mutant (TM3)	IP accumulation, agonist			EC50	6 nM
C=C1CC[C@H]2C(=C)CC[C@H]3C(=C)C(=O)O[C@@H]3[C@@H]12	hepatitis B virus	HBsAg secretion	Hep3B		IC50	2000 nM
Cc1c(C#N)cccc1[C@@H](C)Nc1nnc(C)c2cnc(N3CCOCC3)cc12	RERF-LC-Ad1	In-Cell Western, measured: pERK			IC50	79.9 ± 58.7 nM
C[C@H]1COCCN1c1nc(-c2cnc(N)cc2C(F)F)nc(N2CCOCC2)n1	SW48				GI50	200 nM
COc1ccccc1Oc1cccc(CN2CCC(NC(=O)C(CCN3CCCC3)c3ccccc3)CC2)c1 (stereo not drawn)	human CCR8 K195A mutant (TM5)	IP accumulation, agonist			EC50	2 nM
CC(C)(C)c1ccc(NC(=O)c2ccc(-c3ncccc3[N+](=O)[O-])cc2)cc1	TRPV1	calcium flux, antagonist	HEK293	together with: capsaicin	IC50	5 nM
COc1ccccc1Oc1cccc(CN2CCC3(CC2)C(=O)NCN3CCc2ccccc2)c1	human CCR8 L258A mutant (TM6)	IP accumulation, agonist			EC50	13 nM
FC(F)(F)c1ccc(Nc2nc(N3CCOCC3)nc3sc(Nc4c(Cl)cccc4Cl)nc23)cc1	TRPV1	calcium flux, antagonist	HEK293	together with: capsaicin	IC50	30 nM
CCC(CC)C(=O)O	CALUX reporter cell lines	reporter gene		cell-total, maximum across	EC10	41 µM
FC(F)(F)c1ccc(Nc2ccnc3nc(-c4ncccc4C(F)(F)F)ccc23)nc1	TRPV1	calcium flux, antagonist	HEK293	together with: capsaicin	IC50	2.2 nM
CNC(C)C1CCC(N)C(OC2C(N)CC(N)C(OC3OCC(C)(O)C(NC)C3O)C2O)O1 (stereo not drawn)	Klebsiella pneumoniae		clinical isolate RKI-No_908/15		MIC	> 8 mg/L
O=C(Nc1ccc(C(F)(F)F)cn1)c1ccc(-c2ncccc2C(F)(F)F)cc1	TRPV1	calcium flux, antagonist	HEK293	together with: capsaicin	IC50	24 nM
Nc1cc(C(F)(F)F)c(-c2nc(N3CCOCC3)nc(N3CCOCC3)n2)cn1	A-427				GI50	753 nM
Cc1cccc(C)c1Nc1nc2c(Nc3ccc(C(F)(F)F)cc3)ncnc2s1	TRPV1	calcium flux, antagonist	HEK293	together with: capsaicin	IC50	23 nM
CC(C)(O/N=C(\C(=O)N[C@@H]1C(=O)N2C(C(=O)[O-])=C(C[n+]3ccccc3)CS[C@H]12)c1csc(N)n1)C(=O)O	Escherichia coli		clinical isolate RKI-No_317/16		MIC	≤ 2 mg/L
CC(C)c1cc(C(F)(F)F)ccc1CNC(=O)Nc1cccc2[nH]ncc12	TRPV1	calcium flux, antagonist	HEK293	together with: capsaicin	IC50	9 nM
NC(=S)NN=Cc1ncccc1N	human cervical cancer cells			concentration not given, clinically attainable concentrations and times	cell survival	80%

A few entries again:
Compound	tested on	assay	test system	conditions	measurement	result
COc1ccccc1Oc1cccc(CN2CCC(NC(=O)C3CC(=O)Nc4ccccc43)CC2)c1 (stereo not drawn)	human CCR8 S110A mutant (TM3)	IP accumulation, agonist			EC50	3.6 nM
O=C(NCCc1cccc(C(F)(F)F)c1)Nc1cccc2cnccc12	TRPV1	calcium flux, antagonist	HEK293	together with: capsaicin	IC50	19 nM
Cc1c(C#N)cccc1[C@@H](C)Nc1nnc(C)c2cnc(N3CCOCC3)cc12	RERF-LC-Ad1	In-Cell Western, measured: pERK			IC50	79.9 ± 58.7 nM
